Measured values collected from several papers.
Parts stem from different laboratories: compare values within a part only. Changes are numbered by the printed parent chain.
Sequence of UniProt Q8H174 (whole entry, looked up): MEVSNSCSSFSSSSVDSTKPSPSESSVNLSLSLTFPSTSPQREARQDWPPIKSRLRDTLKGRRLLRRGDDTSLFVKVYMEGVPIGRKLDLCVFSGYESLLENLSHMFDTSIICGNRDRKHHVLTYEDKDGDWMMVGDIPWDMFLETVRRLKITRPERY
Sequence of UniProt Q9C5X0 (whole entry, looked up): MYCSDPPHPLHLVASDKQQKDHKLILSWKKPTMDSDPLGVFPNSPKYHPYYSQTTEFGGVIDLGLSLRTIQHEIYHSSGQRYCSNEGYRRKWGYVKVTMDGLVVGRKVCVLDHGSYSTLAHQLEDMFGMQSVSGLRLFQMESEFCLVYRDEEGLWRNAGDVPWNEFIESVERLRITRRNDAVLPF
Sequence of UniProt Q8L7G0 (whole entry, looked up): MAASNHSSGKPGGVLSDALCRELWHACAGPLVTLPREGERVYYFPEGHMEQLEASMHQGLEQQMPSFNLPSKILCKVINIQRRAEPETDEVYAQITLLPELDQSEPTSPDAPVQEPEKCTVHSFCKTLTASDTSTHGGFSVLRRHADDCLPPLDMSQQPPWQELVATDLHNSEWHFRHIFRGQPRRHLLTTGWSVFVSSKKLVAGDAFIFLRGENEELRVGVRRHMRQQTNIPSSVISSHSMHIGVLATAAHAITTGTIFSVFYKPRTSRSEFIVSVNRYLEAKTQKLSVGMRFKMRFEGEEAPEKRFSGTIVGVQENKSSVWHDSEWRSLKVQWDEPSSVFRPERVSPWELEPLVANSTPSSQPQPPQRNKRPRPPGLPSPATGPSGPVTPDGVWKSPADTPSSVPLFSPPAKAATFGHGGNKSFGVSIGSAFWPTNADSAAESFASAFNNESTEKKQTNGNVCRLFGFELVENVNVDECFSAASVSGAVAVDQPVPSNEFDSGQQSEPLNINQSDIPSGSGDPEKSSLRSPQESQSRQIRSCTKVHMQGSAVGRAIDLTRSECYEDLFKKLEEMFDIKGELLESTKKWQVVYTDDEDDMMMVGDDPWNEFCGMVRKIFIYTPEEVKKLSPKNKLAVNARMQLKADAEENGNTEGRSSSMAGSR
Sequence of UniProt Q94JM3 (whole entry, looked up): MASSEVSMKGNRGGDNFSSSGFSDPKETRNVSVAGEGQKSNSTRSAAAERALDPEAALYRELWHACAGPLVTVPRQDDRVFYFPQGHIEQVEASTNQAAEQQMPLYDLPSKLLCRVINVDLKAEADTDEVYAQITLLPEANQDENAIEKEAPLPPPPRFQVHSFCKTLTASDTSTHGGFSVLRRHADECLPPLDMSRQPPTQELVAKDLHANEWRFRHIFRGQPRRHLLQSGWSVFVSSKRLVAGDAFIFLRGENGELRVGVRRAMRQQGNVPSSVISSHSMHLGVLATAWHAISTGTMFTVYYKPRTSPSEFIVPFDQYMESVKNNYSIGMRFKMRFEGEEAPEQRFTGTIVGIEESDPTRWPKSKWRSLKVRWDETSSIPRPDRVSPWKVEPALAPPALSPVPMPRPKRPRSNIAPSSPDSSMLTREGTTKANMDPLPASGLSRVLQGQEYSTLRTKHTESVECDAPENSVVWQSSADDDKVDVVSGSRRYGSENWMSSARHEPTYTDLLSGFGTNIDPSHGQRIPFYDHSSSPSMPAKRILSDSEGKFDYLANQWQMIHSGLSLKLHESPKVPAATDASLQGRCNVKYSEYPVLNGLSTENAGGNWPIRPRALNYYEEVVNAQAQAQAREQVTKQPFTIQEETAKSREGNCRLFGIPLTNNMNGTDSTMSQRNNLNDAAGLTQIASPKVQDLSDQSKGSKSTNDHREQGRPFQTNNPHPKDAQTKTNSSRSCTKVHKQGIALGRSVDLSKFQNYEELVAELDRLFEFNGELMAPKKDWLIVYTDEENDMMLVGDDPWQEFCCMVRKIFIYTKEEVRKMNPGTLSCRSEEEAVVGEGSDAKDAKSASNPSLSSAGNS
Sequence of UniProt Q9ZTX8 (whole entry, looked up): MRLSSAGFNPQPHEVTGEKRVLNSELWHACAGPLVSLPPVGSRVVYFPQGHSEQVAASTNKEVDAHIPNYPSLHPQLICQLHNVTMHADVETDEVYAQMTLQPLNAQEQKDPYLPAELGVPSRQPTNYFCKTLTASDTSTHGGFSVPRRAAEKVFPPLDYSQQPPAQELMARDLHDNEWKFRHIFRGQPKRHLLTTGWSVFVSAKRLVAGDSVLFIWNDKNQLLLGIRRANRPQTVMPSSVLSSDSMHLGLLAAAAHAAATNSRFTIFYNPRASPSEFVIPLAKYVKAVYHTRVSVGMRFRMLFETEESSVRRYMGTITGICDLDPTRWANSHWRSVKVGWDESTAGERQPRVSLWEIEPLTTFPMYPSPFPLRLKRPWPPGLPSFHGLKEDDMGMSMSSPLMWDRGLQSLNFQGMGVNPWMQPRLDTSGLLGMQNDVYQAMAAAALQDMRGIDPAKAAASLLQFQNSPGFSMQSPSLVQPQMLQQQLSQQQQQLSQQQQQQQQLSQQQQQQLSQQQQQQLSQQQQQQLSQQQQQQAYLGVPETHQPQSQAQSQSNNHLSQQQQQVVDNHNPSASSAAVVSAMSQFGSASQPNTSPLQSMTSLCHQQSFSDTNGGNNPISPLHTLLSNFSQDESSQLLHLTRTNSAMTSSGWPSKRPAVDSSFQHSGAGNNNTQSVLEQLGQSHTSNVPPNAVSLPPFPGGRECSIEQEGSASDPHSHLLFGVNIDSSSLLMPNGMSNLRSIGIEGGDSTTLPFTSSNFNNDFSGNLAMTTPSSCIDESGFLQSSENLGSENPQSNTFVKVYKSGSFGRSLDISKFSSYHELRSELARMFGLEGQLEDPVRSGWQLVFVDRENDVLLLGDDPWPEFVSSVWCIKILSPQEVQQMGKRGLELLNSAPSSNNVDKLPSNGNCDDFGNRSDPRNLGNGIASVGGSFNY
Sequence of UniProt Q9FX25 (whole entry, looked up): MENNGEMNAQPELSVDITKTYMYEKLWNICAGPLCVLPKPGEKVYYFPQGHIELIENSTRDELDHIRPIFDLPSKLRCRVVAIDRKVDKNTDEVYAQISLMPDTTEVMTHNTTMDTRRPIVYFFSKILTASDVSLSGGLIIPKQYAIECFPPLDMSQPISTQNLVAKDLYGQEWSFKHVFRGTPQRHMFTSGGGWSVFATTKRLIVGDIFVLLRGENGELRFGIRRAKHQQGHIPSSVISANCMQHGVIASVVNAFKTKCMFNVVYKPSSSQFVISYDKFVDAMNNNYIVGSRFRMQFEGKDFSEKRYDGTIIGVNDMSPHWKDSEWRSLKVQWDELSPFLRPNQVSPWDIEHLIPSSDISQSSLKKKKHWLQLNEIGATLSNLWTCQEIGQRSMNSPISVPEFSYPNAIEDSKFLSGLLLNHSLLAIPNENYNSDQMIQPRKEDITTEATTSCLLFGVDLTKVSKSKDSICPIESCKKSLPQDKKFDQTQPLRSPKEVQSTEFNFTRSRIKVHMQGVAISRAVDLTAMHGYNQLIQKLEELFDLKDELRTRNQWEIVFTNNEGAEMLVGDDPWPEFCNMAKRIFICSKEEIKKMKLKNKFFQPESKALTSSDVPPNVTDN
Sequence of UniProt O23661 (whole entry, looked up): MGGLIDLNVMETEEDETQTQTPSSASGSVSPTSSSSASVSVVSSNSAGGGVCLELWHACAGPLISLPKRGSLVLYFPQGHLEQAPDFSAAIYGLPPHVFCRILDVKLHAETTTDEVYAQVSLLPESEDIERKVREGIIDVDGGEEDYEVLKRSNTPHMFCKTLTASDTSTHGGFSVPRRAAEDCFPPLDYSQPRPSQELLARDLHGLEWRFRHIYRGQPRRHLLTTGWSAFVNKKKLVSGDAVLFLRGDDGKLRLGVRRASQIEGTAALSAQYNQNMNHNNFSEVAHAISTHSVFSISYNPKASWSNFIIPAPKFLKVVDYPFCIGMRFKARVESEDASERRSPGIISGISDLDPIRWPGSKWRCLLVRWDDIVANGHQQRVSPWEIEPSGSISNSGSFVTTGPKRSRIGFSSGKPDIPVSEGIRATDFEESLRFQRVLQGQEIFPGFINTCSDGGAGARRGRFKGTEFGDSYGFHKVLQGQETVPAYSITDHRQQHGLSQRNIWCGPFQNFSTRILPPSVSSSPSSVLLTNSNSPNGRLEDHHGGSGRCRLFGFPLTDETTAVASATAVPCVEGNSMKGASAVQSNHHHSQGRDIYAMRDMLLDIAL
Sequence of UniProt P93830 (whole entry, looked up): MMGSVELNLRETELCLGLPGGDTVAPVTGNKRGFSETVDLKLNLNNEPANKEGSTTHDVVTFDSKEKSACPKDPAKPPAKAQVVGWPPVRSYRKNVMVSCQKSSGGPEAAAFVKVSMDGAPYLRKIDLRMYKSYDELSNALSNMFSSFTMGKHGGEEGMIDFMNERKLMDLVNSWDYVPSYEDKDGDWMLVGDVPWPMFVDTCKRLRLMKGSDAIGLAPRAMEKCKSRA
Sequence of UniProt Q8RYC6 (whole entry, looked up): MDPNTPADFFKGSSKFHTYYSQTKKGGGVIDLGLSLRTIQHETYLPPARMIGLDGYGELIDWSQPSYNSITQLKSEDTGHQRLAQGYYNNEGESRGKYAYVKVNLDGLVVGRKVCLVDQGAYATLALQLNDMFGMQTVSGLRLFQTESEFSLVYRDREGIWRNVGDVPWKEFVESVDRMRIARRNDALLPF

Study 1
Target: PABPC1L2, full length, GST fusion (mouse, UniProt A0ABA7IW68)
Technique: RNAcompete
Molecule type: RNA
Matrix: in vitro
Concentration: 20 nM
Notes: 7-mer, probes averaged, single round
Relative to: mean of 7-mers
Direction: higher = stronger binding
Target sequence (chain): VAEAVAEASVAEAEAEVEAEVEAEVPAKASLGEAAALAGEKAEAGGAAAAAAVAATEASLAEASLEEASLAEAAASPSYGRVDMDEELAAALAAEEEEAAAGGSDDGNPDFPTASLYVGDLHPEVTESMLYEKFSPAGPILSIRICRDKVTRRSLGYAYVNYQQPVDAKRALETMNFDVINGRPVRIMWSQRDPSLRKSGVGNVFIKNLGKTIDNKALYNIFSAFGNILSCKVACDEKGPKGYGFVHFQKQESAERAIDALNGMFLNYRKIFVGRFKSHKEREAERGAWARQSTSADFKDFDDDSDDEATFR
Oligonucleotide | 7-mer Z-score
CAGGCCA | -0.119
CAUAGAC | -0.157
GCGCUCA | -0.258
AUGCUCU | -0.242
UGGAGAC | 0.0569
CACAGAG | -0.0047
UGCCACG | -0.186
AGUCUCC | -0.34
CGCGAAA | 0.706
UAAGAAC | 0.0478
AGCCAAC | -0.249
GCUCUAC | -0.22
CAACAUG | -0.00833
CUGGAUA | 0.00436
UCCACUG | -0.258
CGCUCUC | -0.325
GAUACCU | -0.342
AUGUGUC | -0.364
CCAACAA | 0.352
GGAUUCA | -0.0609
GGUUCUA | -0.164
UAUCAGA | -0.0047
UCACAUA | -0.11
AUGACAG | -0.0808

Study 2
Target: RNA binding protein fox-1 homolog 2, RRM domain, GST-SBP tag (RBFOX2, Homo sapiens, UniProt O43251-10, residues 100-194)
Technique: RNA Bind-n-Seq
Molecule type: RNA
Matrix: in vitro
Concentration: 365 nM
Notes: natural RNA segment, single round, ends assumed
Relative to: no-protein control
Direction: higher = stronger binding
Target sequence (chain): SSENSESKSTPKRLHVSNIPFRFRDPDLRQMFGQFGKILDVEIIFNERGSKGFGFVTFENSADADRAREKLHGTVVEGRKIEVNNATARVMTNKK
Oligonucleotide | RBNS enrichment (R)
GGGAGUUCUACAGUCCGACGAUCGGCUAAAUCCUGUGGAAUUGUUUUUAAUGACUGAAUUUAACCAUUUUCAUAGUUGGUUCCUGGAGGUGUGCCAAGUGCCCGCUUGCCUCUUCUAGACCCACAGCUUCUUGUGGAAUUCUCGGGUGCCAA | 0.317
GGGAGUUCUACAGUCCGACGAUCCCACUGCCCCUCCCUGCCAUCUUCUGCUACUUAGCUUGGGAGUUGAUGGUUGCAGAAGCCACACAGGGUUAAAGUAAAUUCUGUCUUUGCCCACCAGGGGAUCAAACCCCUGGAAUUCUCGGGUGCCAA | 0.369
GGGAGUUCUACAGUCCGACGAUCAAUUUUAUUCGUAGAAAUCAGUAGAAAAAAAAAGUCUUGGGAACCUUCCAUCUGAUUUGCCUGGCCAUGCCAUCCAGUCCUUGUACAUAUAUACCUUGGAGUCCCAUACAUGGAAUUCUCGGGUGCCAA | 0.462
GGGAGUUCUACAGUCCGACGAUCUUGUUUGUUUCAUCUUUUUCAGUUGAAUAUUAAUACUAAUGGCCACGUCUGACAAAUGUGUGUAUGUGCUUUGAGCACUGUGUACAUCUUAGGAUAAUGGUGGACAUUUCUGGAAUUCUCGGGUGCCAA | 0.25
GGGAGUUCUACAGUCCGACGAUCACCUUAUUUUUACUUGAAAUUUGCUAGAAGAAAUAGCAAACCGAAAUUUGUUUUAUGCAUGAGUUAAUACCACUGGCUCAGCAAAUACAAGUUAGUUUGCUUUAAGCAGGUGGAAUUCUCGGGUGCCAA | 1.9
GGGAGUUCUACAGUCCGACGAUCAGAGCUCCACAUACAGAAACACAUUAUUUUGCAGAAAUAGGUGUUUUUAAGAAGUUUUACUACAGGAAUGUCUACUUUUGUAAGUGACAGGUGUUAAAGGCCCAGGUGUGUGGAAUUCUCGGGUGCCAA | 0.748
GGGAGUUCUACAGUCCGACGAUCCUCCCUUCUCAGGGGGCCCAUUUUAGACACACAAAGCCCAAAGAAAGGUGGUUUGCAACAGUGCUUAGCUCGAGCCUCCAUAUUUCCAUAACUGUUAGCUUAAAACUGUGUGGAAUUCUCGGGUGCCAA | 0.335
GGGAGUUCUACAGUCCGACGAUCUCUCUUCCUCUACUGCCUAACUGUUGGUGGGCUGUAUCAUUCAAUAAGAUCACUUCAUUUUCAACUUAGACCCACCGUUUCUUUUUUGUUGUUUUGUUUUGUUUGGUUUGUGGAAUUCUCGGGUGCCAA | 0.669
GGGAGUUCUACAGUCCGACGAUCGGAGCUCUUCAAGAAAAGCAGAGUUCUUCUCGUUCUUGUUCAAUCCUAAAAGCAGAUGUUUUGCCAAAUCUCCAAACUAGAGGACAAAGACAAGGGGACAAUGACCAUCAUGGAAUUCUCGGGUGCCAA | 0.345
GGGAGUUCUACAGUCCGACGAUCUUGAGAAGUAGCAGGGAGCAGGGCAUCUUGGGAGCUGGUAUUGUGCUUGGUCAGAGUAGCUAAGCCCUGGUCUUAGGCCUGAGCCUGGAGUCUGCCCCCAUUUCCUUUUCUGGAAUUCUCGGGUGCCAA | 0.633
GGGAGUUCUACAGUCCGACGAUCAACCACCACAAAACAAGCUUUAUUAACACAGGAGCCUAGUGGGGAUUGCGAAACACAGGAAUGUGCAGGCGCUCCGGGGGGUGUAAAGUGAACGUUUCCAUCGUUAGAAUUGGAAUUCUCGGGUGCCAA | 0.703
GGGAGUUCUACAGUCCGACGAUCAUUAAGAUGUUUUCACCACAUUGUAUUACAGAGACAGCCAAUAAAUCUACUAUUUGAUUUCAAUAUGUUUUGGAGGCUUAUUAUUGUUCCAGUGUGAAGGAUGAGGAGAGUGGAAUUCUCGGGUGCCAA | 0.282

Study 3
Target: CCND2, cyclin fold, Cln2 fusion (human)
Technique: yeast growth competition, sequencing
Matrix: yeast
Notes: weak parent motif
Relative to: not given
Direction: higher = stronger binding
Starting sequence: RBL1 docking peptide (human); GSAKRRLFGEDPP
Change | normalised enrichment score
P13Y | 0.0361
K4E | -0.262
R6C | 0.15
S2H | 0.323
L7P | 0.385
D11W | 0.45
D11P | -0.174
G1F | 0.709
F8E | -0.283
S2L | -0.0894
D11E | 0.489
E10K | 0.554
R6E | 0.467
G9V | 0.712
K4D | 0.0449
L7Y | 0.0315
D11M | 0.16
P13G | -0.21
S2M | 0.149
G9F | 0.705
L7N | 0.762
P12S | 0.586
S2R | 0.223
R6P | 0.0316
R5V | -0.0673

Study 4
Target: Histone acetyltransferase KAT6A, winged helix 2, GST fusion (KAT6A, Homo sapiens, UniProt Q92794, residues 85-181)
Technique: protein binding microarray
Molecule type: double-stranded DNA, one strand shown
Matrix: in vitro
Concentration: not given
Notes: 8-mer, flanks averaged, mean of 2 arrays, mostly near background
Relative to: not given
Direction: higher = stronger binding
Target sequence (chain): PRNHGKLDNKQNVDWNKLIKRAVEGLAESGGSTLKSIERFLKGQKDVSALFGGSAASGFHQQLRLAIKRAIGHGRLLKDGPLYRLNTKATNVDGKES
Oligonucleotide | E-score
AAATGTCC | -0.178
ATATATCA | -0.024
TAATAGTA | 0.064
AAAGCACG | -0.00827
TCGTAGCA | 0.0815
GCCGGAAA | 0.217
TCGCGACA | 0.082
CGAATGCC | 0.0879
GGGGACAC | 0.0916
GCAACGAC | -0.0012
CGAATATC | -0.0255
AGGTCACA | -0.0823
GGGCAAAC | 0.0936
TCCTTTCA | 0.0754
GCGAGGGA | 0.0592
CAAGGAGC | -0.038
ATCGTCTA | -0.148
AAGGATGA | -0.261
CATAGACA | -0.0362
AACTGATA | 0.0178
CTAGAAAA | -0.15
AAGTTATT | 0.104
CCTGCGCC | 0.0872
GCCGCTAA | 0.105
ACATGGAC | -0.0921

Study 5
Sequence: B1 (IAA15)
Technique: two-hybrid
Direction: higher = firmer interaction
B1: IAA15 (Arabidopsis thaliana, UniProt Q9C966); chain MSPEEYVRVWPDSGDLGGTELTLALPGTPTNASEGPKKFGNKRRFLETVDLKLGEAHENNYISSMVTNDQLVGWPPVATARKTVRRKYVKVALDGAAYLRKVDLGMYDCYGQLFTALENMFQGIITICRVTELERKGEFVATYEDKDGDLMLVGDVPWMMFVESCKRMRLMKTGDAIGL
partner | relative to | positive tests
ARF2 727-859 (Arabidopsis thaliana, UniProt Q94JM3) | out of 4 tests | 1
IAA32 (Arabidopsis thaliana, UniProt Q8RYC6) | out of 4 tests | 2
IAA34 (Arabidopsis thaliana, UniProt Q9C5X0) | out of 4 tests | 3
IAA17 (Arabidopsis thaliana, UniProt P93830) | out of 4 tests | 3
ARF1 538-665 (Arabidopsis thaliana, UniProt Q8L7G0) | out of 4 tests | 0
ETT (Arabidopsis thaliana, UniProt O23661) | out of 2 tests | 0
ARF6 790-935 (Arabidopsis thaliana, UniProt Q9ZTX8) | out of 4 tests | 4
IAA31 (Arabidopsis thaliana, UniProt Q8H174) | out of 2 tests | 0
ARF13 (Arabidopsis thaliana, UniProt Q9FX25) | out of 4 tests | 0

Excerpt of the above (study 1):
Oligonucleotide | 7-mer Z-score
CAGGCCA | -0.119
GGAUUCA | -0.0609
GAUACCU | -0.342
CGCGAAA | 0.706
UAAGAAC | 0.0478
GCGCUCA | -0.258
AUGACAG | -0.0808
AUGUGUC | -0.364
AGCCAAC | -0.249
UCACAUA | -0.11
CUGGAUA | 0.00436
CACAGAG | -0.0047
UAUCAGA | -0.0047
UCCACUG | -0.258
